Assay results from different studies.
Protocols differ between the studies behind these lines. ± marks the error that the study gave.
BACE1: Beta-secretase 1 (BACE1, Homo sapiens, UniProt P56817)
Chain of UniProt P56817 (whole entry, looked up): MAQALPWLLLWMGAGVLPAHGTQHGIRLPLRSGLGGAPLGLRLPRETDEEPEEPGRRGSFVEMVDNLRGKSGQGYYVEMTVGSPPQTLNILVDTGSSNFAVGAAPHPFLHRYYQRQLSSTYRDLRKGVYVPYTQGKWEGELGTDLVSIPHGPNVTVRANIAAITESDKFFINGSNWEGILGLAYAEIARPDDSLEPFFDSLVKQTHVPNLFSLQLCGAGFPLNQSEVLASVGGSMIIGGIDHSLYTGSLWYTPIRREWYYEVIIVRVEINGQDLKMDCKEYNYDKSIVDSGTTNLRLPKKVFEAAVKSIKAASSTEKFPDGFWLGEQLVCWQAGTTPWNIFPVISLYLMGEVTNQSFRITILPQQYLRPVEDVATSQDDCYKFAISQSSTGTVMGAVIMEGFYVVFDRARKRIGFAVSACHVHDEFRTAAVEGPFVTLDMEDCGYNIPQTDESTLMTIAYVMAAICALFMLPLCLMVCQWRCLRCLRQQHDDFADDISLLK
Chain of UniProt P34969 (whole entry, looked up): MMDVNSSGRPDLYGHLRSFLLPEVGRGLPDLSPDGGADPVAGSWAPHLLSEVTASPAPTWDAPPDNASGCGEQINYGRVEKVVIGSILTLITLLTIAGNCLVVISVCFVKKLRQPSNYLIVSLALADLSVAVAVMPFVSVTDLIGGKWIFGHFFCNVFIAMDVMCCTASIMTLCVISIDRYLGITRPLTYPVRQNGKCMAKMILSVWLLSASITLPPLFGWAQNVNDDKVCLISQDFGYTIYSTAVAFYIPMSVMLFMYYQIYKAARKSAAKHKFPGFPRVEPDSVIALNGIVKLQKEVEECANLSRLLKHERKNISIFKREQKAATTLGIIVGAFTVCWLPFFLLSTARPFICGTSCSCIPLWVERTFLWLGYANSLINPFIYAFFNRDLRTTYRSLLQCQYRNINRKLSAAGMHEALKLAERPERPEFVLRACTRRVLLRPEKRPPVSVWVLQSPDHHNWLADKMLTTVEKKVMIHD
Chain of UniProt Q15858 (whole entry, looked up): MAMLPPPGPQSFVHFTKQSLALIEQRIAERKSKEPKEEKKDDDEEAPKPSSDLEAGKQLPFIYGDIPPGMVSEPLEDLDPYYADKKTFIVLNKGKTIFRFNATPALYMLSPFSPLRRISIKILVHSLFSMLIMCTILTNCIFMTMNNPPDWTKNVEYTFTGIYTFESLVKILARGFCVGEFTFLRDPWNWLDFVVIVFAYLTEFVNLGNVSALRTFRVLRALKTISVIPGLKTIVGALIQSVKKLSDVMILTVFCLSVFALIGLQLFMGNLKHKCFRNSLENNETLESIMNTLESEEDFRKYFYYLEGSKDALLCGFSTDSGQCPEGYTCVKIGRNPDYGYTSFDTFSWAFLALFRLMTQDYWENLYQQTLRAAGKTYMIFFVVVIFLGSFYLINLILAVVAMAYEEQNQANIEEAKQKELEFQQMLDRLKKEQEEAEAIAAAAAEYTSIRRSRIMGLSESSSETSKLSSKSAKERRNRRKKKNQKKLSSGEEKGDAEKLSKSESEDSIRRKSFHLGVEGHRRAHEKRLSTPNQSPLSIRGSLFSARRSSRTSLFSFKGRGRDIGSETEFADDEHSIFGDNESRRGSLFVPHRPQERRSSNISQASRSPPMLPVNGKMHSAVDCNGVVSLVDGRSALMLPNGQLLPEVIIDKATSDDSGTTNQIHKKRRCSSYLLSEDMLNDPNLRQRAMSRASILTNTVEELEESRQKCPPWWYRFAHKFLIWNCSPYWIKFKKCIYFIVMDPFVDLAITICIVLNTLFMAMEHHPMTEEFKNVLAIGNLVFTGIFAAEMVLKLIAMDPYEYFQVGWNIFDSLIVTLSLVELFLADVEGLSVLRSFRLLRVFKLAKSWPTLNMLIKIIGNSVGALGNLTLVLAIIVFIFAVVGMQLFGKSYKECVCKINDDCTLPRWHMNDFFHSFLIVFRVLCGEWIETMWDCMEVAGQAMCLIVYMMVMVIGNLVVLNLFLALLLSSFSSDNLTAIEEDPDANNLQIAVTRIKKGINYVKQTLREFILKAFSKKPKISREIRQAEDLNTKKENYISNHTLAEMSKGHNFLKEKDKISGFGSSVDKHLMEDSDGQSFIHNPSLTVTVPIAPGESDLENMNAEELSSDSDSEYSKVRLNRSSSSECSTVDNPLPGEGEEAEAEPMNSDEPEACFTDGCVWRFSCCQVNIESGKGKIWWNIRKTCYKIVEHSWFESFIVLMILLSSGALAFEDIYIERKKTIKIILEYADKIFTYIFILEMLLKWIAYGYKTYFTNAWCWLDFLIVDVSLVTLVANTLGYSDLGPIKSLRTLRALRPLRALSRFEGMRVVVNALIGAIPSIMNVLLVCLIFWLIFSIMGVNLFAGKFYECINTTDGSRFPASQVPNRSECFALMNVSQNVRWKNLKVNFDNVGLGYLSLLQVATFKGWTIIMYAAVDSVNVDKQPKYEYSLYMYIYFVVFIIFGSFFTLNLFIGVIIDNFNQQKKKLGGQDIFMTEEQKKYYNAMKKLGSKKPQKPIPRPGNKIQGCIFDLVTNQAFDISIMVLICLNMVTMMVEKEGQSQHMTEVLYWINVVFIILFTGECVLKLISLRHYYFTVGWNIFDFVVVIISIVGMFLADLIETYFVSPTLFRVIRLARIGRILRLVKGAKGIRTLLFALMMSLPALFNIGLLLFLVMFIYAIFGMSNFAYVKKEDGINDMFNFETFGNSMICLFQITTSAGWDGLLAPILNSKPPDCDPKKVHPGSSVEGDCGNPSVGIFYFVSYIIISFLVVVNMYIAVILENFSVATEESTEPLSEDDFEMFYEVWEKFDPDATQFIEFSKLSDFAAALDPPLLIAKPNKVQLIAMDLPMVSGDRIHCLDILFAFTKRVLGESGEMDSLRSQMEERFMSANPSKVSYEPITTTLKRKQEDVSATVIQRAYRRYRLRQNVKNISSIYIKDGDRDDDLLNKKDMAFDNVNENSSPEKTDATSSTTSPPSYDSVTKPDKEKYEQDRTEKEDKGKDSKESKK
Chain of UniProt A0R016 (whole entry, looked up): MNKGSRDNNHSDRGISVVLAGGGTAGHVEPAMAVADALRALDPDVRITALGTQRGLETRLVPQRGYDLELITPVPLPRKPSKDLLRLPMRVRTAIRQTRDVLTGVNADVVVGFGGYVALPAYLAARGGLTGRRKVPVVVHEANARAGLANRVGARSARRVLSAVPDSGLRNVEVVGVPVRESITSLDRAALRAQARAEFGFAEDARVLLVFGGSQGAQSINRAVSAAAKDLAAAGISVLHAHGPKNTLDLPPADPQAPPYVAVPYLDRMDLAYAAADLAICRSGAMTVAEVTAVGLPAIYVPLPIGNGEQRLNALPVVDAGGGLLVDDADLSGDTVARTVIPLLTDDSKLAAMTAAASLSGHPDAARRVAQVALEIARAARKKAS
Chain of UniProt P0C0V0 (whole entry, unmodified, looked up): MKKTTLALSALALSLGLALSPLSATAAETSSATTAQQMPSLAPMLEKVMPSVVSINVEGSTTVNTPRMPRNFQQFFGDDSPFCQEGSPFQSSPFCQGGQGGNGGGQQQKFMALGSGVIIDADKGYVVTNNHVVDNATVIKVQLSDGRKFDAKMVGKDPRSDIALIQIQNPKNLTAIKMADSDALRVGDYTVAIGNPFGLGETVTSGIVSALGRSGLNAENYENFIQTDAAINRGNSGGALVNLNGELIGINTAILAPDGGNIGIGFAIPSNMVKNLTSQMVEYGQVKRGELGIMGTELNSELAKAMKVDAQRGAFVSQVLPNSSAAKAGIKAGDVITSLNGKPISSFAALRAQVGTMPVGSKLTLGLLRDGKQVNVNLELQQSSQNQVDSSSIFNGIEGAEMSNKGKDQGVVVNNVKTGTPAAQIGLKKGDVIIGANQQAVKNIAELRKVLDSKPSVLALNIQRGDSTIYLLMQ

| Compound | target | test | system | setting | how to read | endpoint | result |
| --- | --- | --- | --- | --- | --- | --- | --- |
| CC(=O)N[C@H]1[C@@H](OP(=O)(O)OP(=O)(O)OC/C=C(/C)CC/C=C(/C)CC/C=C(/C)CC/C=C(/C)CC/C=C(/C)CC/C=C(/C)CC/C=C(/C)CC/C=C(/C)CC/C=C(\C)CC/C=C(\C)CCC=C(C)C)O[C@H](CO)[C@@H](O)[C@@H]1O[C@H](C)C(=O)N[C@@H](C)C(=O)N[C@H](CCC(=O)N[C@@H](CCCCNC(=O)OCCCCCCNC(=S)Nc1ccc(NS(=O)(=O)c2cccc3c(N(C)C)cccc23)cc1)C(=O)N[C@H](C)C(=O)N[C@H](C)C(=O)O)C(=O)O | UDP-N-acetylglucosamine--N-acetylmuramyl-(pentapeptide) pyrophosphoryl-undecaprenol N-acetylglucosamine transferase (murG, Mycolicibacterium smegmatis, UniProt A0R016) | substrate |  | together with: UDP-GlcNAc 375.0 µM |  | Km | 40 ± 5 µM |
| CCCCCCCCCCCCCCCc1ccc(C(F)P(=O)(O)O)cc1 (racemic) | Autotaxin (ENPP2, Homo sapiens, UniProt Q13822) |  |  | enzyme substrate complex |  | Ki′ | 5.54 µM |
| CC[C@H](C)[C@H](NC(=O)[C@H](Cc1ccccc1)NC(=O)[C@H](CCC(=O)O)NC(=O)[C@H](CCCCN)NC(=O)[C@H](C)NC(=O)[C@H](C)NC(=O)[C@H](CC(N)=O)NC(=O)CNC(=O)[C@H](CCC(=O)O)NC(=O)[C@H](CC(C)C)NC(=O)[C@H](Cc1ccc(O)cc1)NC(=O)[C@H](CO)NC(=O)[C@H](CO)NC(=O)[C@@H](NC(=O)[C@H](CC(=O)O)NC(=O)[C@H](CO)NC(=O)[C@@H](NC(=O)[C@H](Cc1ccccc1)NC(=O)[C@H](CCC(N)=O)NC(=O)CNC(=O)[C@H](CCC(=O)O)NC(=O)[C@H](C)NC(=O)[C@@H](N)Cc1c[nH]cn1)[C@@H](C)O)C(C)C)C(=O)N[C@@H](C)C(=O)N[C@@H](Cc1c[nH]c2ccccc12)C(=O)N[C@@H](CC(C)C)C(=O)N[C@H](C(=O)N[C@@H](CCCCN)C(=O)NCC(=O)N[C@@H](CCCNC(=N)N)C(N)=O)C(C)C | Glucagon-like peptide 1 receptor (Rattus norvegicus, UniProt P32301) | cAMP production, agonist | RIN-m5F cell membranes |  | relative to: GLP-1(7-36) amide over analogue EC50 | relative potency | 0.014 |
| CC[N+](CC)(CC)CCCC(=O)NCC(=O)NCC(=O)NCC(=O)NC(CCCCNC(=O)CCN1C(=O)C=CC1=O)C(N)=O (stereo not shown) | Sh (Drosophila melanogaster, UniProt P08510, del6-46/K253C/F425G/T449F) | ion current, tethered blocker, two-electrode voltage clamp | Xenopus oocytes | concentration not given |  | irreversible block | 45% |
| CC(=O)N(C)[C@@H](Cc1ccccc1)C(=O)N[C@@H](Cc1ccccc1)C(=O)N[C@@H](Cc1c[nH]c2ccccc12)C(=O)N[C@@H](CCCNC(=N)N)C(=O)N[C@@H](CC(C)C)C(=O)N[C@@H](CCCNC(=N)N)C(=O)N[C@@H](CCCNC(=N)N)C(=O)N[C@H](C)C(=O)N[C@@H](CCCNC(=N)N)C(=O)N1CCC[C@H]1C(=O)N[C@@H](CCCCN)C(N)=O | Oprk1 (Rattus norvegicus, UniProt P34975) | agonist | CHO cells | 10 µM | relative to: dynorphin A(1-13) amide | adenylyl cyclase activity | 105 ± 16% |
| Nc1ncnc2c1ccn2[C@@H]1O[C@@H]2COP(=O)(O)O[C@H]3[C@@H](O)[C@H](n4ccc5c(N)ncnc54)O[C@@H]3COP(=O)(O)O[C@H]2[C@H]1O | ydaO riboswitch wild type (Bacillus subtilis) | competition gel-shift |  | concentration not given | relative to: c-di-AMP, higher = weaker binding | binding affinity fold loss | 12 |
| COC[C@H]1CC[C@@H]2/C1=C\[C@@]1(C)CCC(C(C)C)=C1[C@@H](O[C@H]1O[C@H](CO)[C@@H](O)[C@H](O)[C@H]1O)[C@H](O)[C@@H]2C | 14-3-3 protein gamma, with p65 peptide (YWHAG, Homo sapiens, UniProt P61981) | ternary complex formation, 2D fluorescence anisotropy titration |  |  |  | threshold concentration | 1 µM |
| CN1C(=O)[C@H](CCC(=O)O)NC(=O)[C@H](Cc2ccc(O)cc2)NC(=O)[C@H](CCCNC(=N)N)NC(=O)[C@@H](Cc2ccc(O)cc2)NC(=O)CSC[C@@H](C(=O)N2CCC[C@H]2C(=O)N[C@@H](CCCCN)C(=O)N[C@@H](CS)C(N)=O)NC(=O)[C@H](CCC(=O)O)NC(=O)[C@H](Cc2ccc(O)cc2)N(C)C(=O)[C@H](CCCCN)NC(=O)[C@H](Cc2ccc(O)cc2)NC(=O)[C@@H]1Cc1ccc(O)cc1 | 2,3-bisphosphoglycerate-independent phosphoglycerate mutase (gpmI, Staphylococcus aureus, UniProt Q6GIL5) | thermal stability, thermal shift |  |  |  | ΔTm | 3 °C |
| CCN(Cc1ccccc1)C(=O)CCc1nc(CN2CCN(C(=O)Cc3ccc(OC)c(OC)c3)CC2)no1 | SCN9A (Homo sapiens, UniProt Q15858) | whole-cell patch clamp | HEK stable | 1 µM |  | V1/2 of activation | -40.8 ± 2.01 mV |
| O=C([O-])CN1CCN(CC(=O)NCCN(Cc2ccccn2)Cc2ccccn2)CCN(CC(=O)[O-])CCN(CC(=O)NCCN(Cc2ccccn2)Cc2ccccn2)CC1.[Gd+3] | Albumin, Zn(II)-bound (ALB, Homo sapiens, UniProt P02768) | relaxometry 0.47 T |  | 600 µM, 310 K, together with: Zn(II) two equivalents |  | relaxivity r1 | 17.4 ± 0.5 mM⁻¹ s⁻¹ |
| COC(=O)C1C(OC(c2ccc(Cl)cc2)c2ccc(Cl)cc2)CC2CCC1N2C (single isomer, unassigned) | ADORA2A (Homo sapiens, UniProt P29274) | binding |  | 10000 nM, together with: [3H]CGS-21680 |  | displacement | inactive |
| COc1ccc2cc1Oc1ccc(cc1)C[C@H]1c3cc(c(OC)cc3CC[N@+]1(C)Cc1ccc3c(c1)C(=O)c1ccccc1C3=O)Oc1c(OC)c(OC)cc3c1[C@H](C2)[N@@+](C)(Cc1ccc2c(c1)C(=O)c1ccccc1C2=O)CC3 | poly(dG)·poly(dC) 18-bp dsDNA | DNA binding, ethidium bromide displacement | phosphate buffer, 10% DMSO | pH 7.2, 25 °C, dsDNA 10 µM, 10 mM NaCl, together with: ethidium bromide 5 µM |  | Stern-Volmer constant | 15300 M⁻¹ |
| O=C(/C=C/c1ccccc1Br)c1cc2ccccc2oc1=O | BACE1 | enzyme activity, inhibitor, fluorescence |  | 10 µM |  | remaining activity | 92.5% |
| CCCC[C@H](NC=O)C(=O)N[C@@H](CCCC)C(=O)N[C@@H](Cc1c[nH]c2ccccc12)C(=O)N[C@@H](CCC(=O)O)C(=O)N[C@@H](CC(=O)O)C(=O)N[C@@H](Cc1c[nH]c2ccccc12)C(=O)N[C@H](C(=O)NCC(=O)N[C@@H](Cc1c[nH]c2ccccc12)C(=O)N[C@H](C(=O)O)[C@@H](C)CC)C(C)C | FPR1 (Homo sapiens, UniProt P21462, R190W) | receptor downregulation | CHO cells |  |  | Ki/EC50 ratio | 3 fold |
| C[C@H](CCC(=O)NCC(=O)O)[C@H]1CC[C@H]2[C@@H]3C(=O)C[C@H]4C[C@H](O)CC[C@]4(C)[C@H]3CC[C@]12C | SLC10A2 (Homo sapiens, UniProt Q12908) | substrate | SLC10A2-MDCK cells | together with: with vs without sodium | relative to: taurocholate Jmax | normalised Jmax | 0.8 |
| CC(=O)N[C@@H](Cc1c[nH]c2ccccc12)C(=O)N[C@@H](CCC(=O)O)C(=O)N[C@@H](Cc1c[nH]cn1)C(=O)N[C@@H](CC(=O)O)C(=O)Nc1ccc2c(C)cc(=O)oc2c1 | Caspase-3 (CASP3, Homo sapiens, UniProt P42574) | substrate cleavage, substrate, fluorogenic AMC release |  | enzyme 0.25 activity units/µL |  | Vmax | 93.4 ± 8.73 RFU/min |
| O=C(/C=C/c1ccc([N+](=O)[O-])cc1)c1ccc(N2CCNCC2)cc1 | BACE1 | enzyme activity, inhibitor, fluorescence |  | 10 µM |  | remaining activity | 90% |
| CC[C@H](C)[C@H](NC(=O)[C@H](CCC(N)=O)NC(=O)[C@H](CC(C)C)NC(=O)[C@@H](NC(=O)CNC(=O)[C@H](Cc1ccc(O)cc1)NC(=O)[C@H](CC(=O)O)NC(=O)[C@@H](NC(=O)[C@H](CO)NC(=O)CNC(=O)[C@H](CC(=O)O)NC(=O)[C@@H](NC(=O)[C@H](CC(N)=O)NC(=O)[C@H](CCCNC(=N)N)NC(=O)[C@H](CC(N)=O)NC(=O)[C@@H](NC(=O)[C@H](C)NC(=O)[C@H](CCC(N)=O)NC(=O)[C@@H](NC(=O)[C@H](CC(N)=O)NC(=O)[C@H](Cc1ccccc1)NC(=O)[C@H](CC(N)=O)NC(=O)[C@H](CO)NC(=O)[C@H](CCC(=O)O)NC(=O)[C@H](Cc1ccccc1)NC(=O)[C@H](CCCCN)NC(=O)[C@H](C)NC(=O)[C@H](C)NC(=O)[C@H](CO)NC(=O)[C@@H](NC(=O)[C@H](Cc1c[nH]c2ccccc12)NC(=O)[C@H](CC(N)=O)NC(=O)CNC(=O)[C@H](CC(C)C)NC(=O)[C@H](CO)NC(=O)[C@H](Cc1ccc(O)cc1)NC(=O)CNC(=O)[C@H](CCCNC(=N)N)NC(=O)[C@H](Cc1ccc(O)cc1)NC(=O)[C@H](CC(N)=O)NC(=O)[C@@H](N)CC(=O)O)C(C)C)[C@@H](C)O)[C@@H](C)O)[C@@H](C)O)[C@@H](C)O)[C@@H](C)CC)C(=O)O | Periplasmic serine endoprotease DegP (degP, Escherichia coli, UniProt P0C0V0, C83S/C95S/N322C) | FRET |  | 5 µM, together with: protein 500 nM |  | cage assembly half-life | 19.8 ± 1.9 s |
| C[C@@]12CC[C@@H]3c4cc(Cl)c(O)c(Cl)c4CC[C@H]3[C@@H]1CCC2=O | AKR1C1 (Homo sapiens, UniProt Q04828) | enzyme activity, inhibitor, absorbance |  | 100 µM, pH 9 |  | inhibition | 95.9% |
| Cc1onc(-c2ccccc2Cl)c1C(=O)NCC(=O)O | Beta-lactamase (ampC, Escherichia coli K-12, UniProt P00811) |  |  |  |  | ligand efficiency | > 0.14 |
| O=C(N=P12CN3CN(CN(C3)C1)C2)c1ccccn1.[Cl][Pt][Cl] | Albumin (ALB, Homo sapiens, UniProt P02768) | binding, isothermal titration calorimetry |  |  | relative to: K1 over K2 | affinity ratio | ~40 |
| CC1(CCN2CCc3ccccc3C2)Cc2cc(Cl)ccc2C1=O (single isomer, unassigned) | HTR7 (Homo sapiens, UniProt P34969) | β-arrestin recruitment, agonist, Tango |  |  |  | Hill coefficient | 1 ± 0.1 |

Excerpt of the above:
| Compound | target | test | system | setting | how to read | endpoint | result |
| --- | --- | --- | --- | --- | --- | --- | --- |
| CN1C(=O)[C@H](CCC(=O)O)NC(=O)[C@H](Cc2ccc(O)cc2)NC(=O)[C@H](CCCNC(=N)N)NC(=O)[C@@H](Cc2ccc(O)cc2)NC(=O)CSC[C@@H](C(=O)N2CCC[C@H]2C(=O)N[C@@H](CCCCN)C(=O)N[C@@H](CS)C(N)=O)NC(=O)[C@H](CCC(=O)O)NC(=O)[C@H](Cc2ccc(O)cc2)N(C)C(=O)[C@H](CCCCN)NC(=O)[C@H](Cc2ccc(O)cc2)NC(=O)[C@@H]1Cc1ccc(O)cc1 | 2,3-bisphosphoglycerate-independent phosphoglycerate mutase (gpmI, Staphylococcus aureus, UniProt Q6GIL5) | thermal stability, thermal shift |  |  |  | ΔTm | 3 °C |
| CCCC[C@H](NC=O)C(=O)N[C@@H](CCCC)C(=O)N[C@@H](Cc1c[nH]c2ccccc12)C(=O)N[C@@H](CCC(=O)O)C(=O)N[C@@H](CC(=O)O)C(=O)N[C@@H](Cc1c[nH]c2ccccc12)C(=O)N[C@H](C(=O)NCC(=O)N[C@@H](Cc1c[nH]c2ccccc12)C(=O)N[C@H](C(=O)O)[C@@H](C)CC)C(C)C | FPR1 (Homo sapiens, UniProt P21462, R190W) | receptor downregulation | CHO cells |  |  | Ki/EC50 ratio | 3 fold |
| COc1ccc2cc1Oc1ccc(cc1)C[C@H]1c3cc(c(OC)cc3CC[N@+]1(C)Cc1ccc3c(c1)C(=O)c1ccccc1C3=O)Oc1c(OC)c(OC)cc3c1[C@H](C2)[N@@+](C)(Cc1ccc2c(c1)C(=O)c1ccccc1C2=O)CC3 | poly(dG)·poly(dC) 18-bp dsDNA | DNA binding, ethidium bromide displacement | phosphate buffer, 10% DMSO | pH 7.2, 25 °C, dsDNA 10 µM, 10 mM NaCl, together with: ethidium bromide 5 µM |  | Stern-Volmer constant | 15300 M⁻¹ |
